Results pooled from the literature.
Each numbered part is a random draw from the data of one study; scales do not carry over between parts. Substitutions count along the parent as printed.

Set 1
Target: ABI1, truncated, D143A, DHFR fusion (Arabidopsis thaliana)
Technique: DHFR PCA, deep sequencing
Sample: yeast
Setting: methotrexate growth selection, single substitutions
Together with: (+)-ABA 0.0091 µM
Relative to: wild-type fitted maximum
Reading: higher = stronger binding
Endpoint: relative binding score
Starting sequence: PYL1, truncated, DHFR fusion (Arabidopsis thaliana); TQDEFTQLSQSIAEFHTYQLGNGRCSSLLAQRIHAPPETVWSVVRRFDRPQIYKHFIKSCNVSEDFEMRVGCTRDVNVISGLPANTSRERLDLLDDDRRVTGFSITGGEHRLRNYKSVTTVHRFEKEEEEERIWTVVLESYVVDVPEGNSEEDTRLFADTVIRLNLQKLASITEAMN; partner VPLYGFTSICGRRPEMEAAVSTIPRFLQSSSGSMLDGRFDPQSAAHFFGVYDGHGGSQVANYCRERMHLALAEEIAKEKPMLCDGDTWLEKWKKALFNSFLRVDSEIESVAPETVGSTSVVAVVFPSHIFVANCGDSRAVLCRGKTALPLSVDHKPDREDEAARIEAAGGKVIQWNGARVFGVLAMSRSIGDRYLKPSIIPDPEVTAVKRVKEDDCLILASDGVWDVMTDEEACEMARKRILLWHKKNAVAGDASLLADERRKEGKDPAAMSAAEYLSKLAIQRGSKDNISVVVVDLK
E139K: 10.6%
F124Y: 16.9%
A170D: 4.01%
G21M: 9.21%
G21D: 24.7%
H110C: 28.5%
T73D: 0.452%
E38W: 2.78%
Y141T: -3.67%
F103D: 2.79%
S104P: -0.807%
S27F: 1.08%
L156Q: 4.13%
Q2D: 29%
V145S: -3.52%
E151N: 7.19%
V44M: 2.18%
S171G: 7.63%
S11W: 14.7%
E4W: 16.7%
I52L: 45.1%
S150N: 25.1%
T154I: 36.4%
Q19R: 28%

Set 2
Target: UBE2U UBC core domain (UniProt Q5VVX9)
Sequence of UniProt Q5VVX9 (whole entry, looked up): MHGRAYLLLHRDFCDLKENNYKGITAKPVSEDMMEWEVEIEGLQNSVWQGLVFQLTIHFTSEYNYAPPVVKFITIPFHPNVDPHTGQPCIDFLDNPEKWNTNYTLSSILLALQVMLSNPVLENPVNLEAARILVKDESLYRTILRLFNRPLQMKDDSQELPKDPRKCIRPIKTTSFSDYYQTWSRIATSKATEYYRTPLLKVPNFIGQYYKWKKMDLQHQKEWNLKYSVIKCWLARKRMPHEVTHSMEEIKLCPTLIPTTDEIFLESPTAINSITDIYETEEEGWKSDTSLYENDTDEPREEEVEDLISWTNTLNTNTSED
Technique: yeast two-hybrid
Sample: yeast
Setting: mostly zero background
Relative to: not given
Reading: higher = stronger interaction
Endpoint: lacZ reporter activity
B1: DEF8 RING domain (UniProt Q6ZN54); chain AGRLGCSLTEIHTLFAKHIKLDCERCQAKGFVCELCREGDVLFPFDSHTSVCADCSAVFHRDCYYDNSTTCPKCARLSLRK
B2: ANAPC11 RING domain (UniProt Q9NYG5); chain GICRMAFNGCCPDCKVPGDDCPLVWGQCSHCFHMHCILKWLHAQQVQQHCPMCRQEWKFKE
B3: MYCBP2 RING domain (UniProt O75592); chain TSLKQDADDMCMICFTEALSAAPAIQLDCSHIFHLQCCRRVLENRWLGPRITFGFISCPICKNKINHIVLKD
B4: RNF2 RING domain (UniProt Q99496); chain SPRSLHSELMCPICLDMLKNTMTTKECLHRFCADCIITALRSGNKECPTCRKKLVSKRSLR
B5: RNF183 RING domain (UniProt Q96D59); chain EQQGRELEAECPVCWNPFNNTFHTPKMLDCCHSFCVECLAHLSLVTPARRRLLCPLCRQPTVLASGQP
B6: RNF187 RING domain (UniProt Q5TA31); chain ALPAGPAEAACALCQRAPREPVRADCGHRFCRACVVRFWAEEDGPFPCPECADDCWQRAVEP
B7: RNF152 RING domain (UniProt Q8N8N0); chain ETLSQDSLLECQICFNYYSPRRRPKLLDCKHTCCSVCLQQMRTSQKDVRCPWCRGVTKLPPGFS
B8: RNF122 RING domain (UniProt Q9H9V4); chain AKKLQLYGQTCAVCLEDFKGKDELGVLPCQHAFHRKCLVKWLEVRCVCPMCNKPIASPSEAT
B9: MEX3B RING domain (UniProt Q6ZN04); chain SGLRRKGSRDCSVCFESEVIAALVPCGHNLFCMECANRICEKSEPECPVCHTAVTQAIRIF
B10: RLIM RING domain (UniProt Q9NVW2); chain SFGENDALKTCSVCITEYTEGNKLRKLPCSHEYHVHCIDRWLSENSTCPICRRAVLASGNRE
B11: TRIM26 RING domain (UniProt Q12899); chain PLRSLEEEVTCSICLDYLRDPVTIDCGHVFCRSCTTDVRPISGSRPVCPLCKKPFKKENIRP
B1 (DEF8 RING domain): 2700
B2 (ANAPC11 RING domain): 16400
B3 (MYCBP2 RING domain): 0
B4 (RNF2 RING domain): 7770
B5 (RNF183 RING domain): 0
YPEEVDDDLICHICLQALLDPLDTPCGHTYCTLCLTNFLVEKDFCPMDRKPLVLQHCKK (LNX1 RING domain (UniProt Q8TBB1)): 0
B6 (RNF187 RING domain): 0
AEADPLGRFTCPVCLEVYEKPVQVPCGHVFCSACLQECLKPKKPVCGVCRSALAPGVRAV (RNF114 RING domain (UniProt Q9Y508)): 14300
B7 (RNF152 RING domain): 15100
B8 (RNF122 RING domain): 0
B9 (MEX3B RING domain): 0
PEELAVNNDDCAICWDSMQAARKLPCGHLFHNSCLRSWLEQDTSCPTCRMSLNIADNNR (AMFR RING domain (UniProt Q9UKV5)): 0
B10 (RLIM RING domain): 0
YCEMGSTFQLCKICAENDKDVKIEPCGHLMCTSCLTAWQESDGQGCPFCRCEIKGTEPII (CBLB RING domain (UniProt Q13191)): 9740
B11 (TRIM26 RING domain): 0
KPDKMEETLTCIICQDLLHDCVSLQPCMHTFCAACYSGWMERSSLCPTCRCPVERICKNH (CHFR RING domain (UniProt Q96EP1)): 2320

Set 3
Target: CCNA2, cyclin fold, Cln2 fusion (human)
Technique: yeast growth competition, sequencing
Sample: yeast
Setting: strong parent motif
Relative to: not given
Reading: higher = stronger binding
Endpoint: normalised enrichment score
Starting sequence: RB1 docking peptide (human); PKPLKKLRFDIEG
P1Q: 1.16
F9K: 0.875
L4H: 1.48
G13H: 1.09
D10F: 2.09
F9I: 0.125
E12P: 1.72
P3R: 1.11
K6L: 0.669
R8E: 1.14
D10A: 2.02
L4T: 0.994
L7G: 0.882
K5C: 0.253
G13A: 1.16
I11H: 0.935
P3G: 1.77
P3W: 1.93
I11Y: 1.08

Set 4
Target: Phosphate system positive regulatory protein PHO4, full length, GST-tagged (PHO4, Saccharomyces cerevisiae, UniProt P07270, residues 1-312)
Technique: competition protein-binding microarray
Molecule type: double-stranded DNA, one strand shown
Sample: in vitro
Tested at: 2 µM
Setting: whole 60-bp probe, lowest competitor level
Together with: Cbf1 competitor, 0.05 µM
Reading: higher = stronger binding
Endpoint: fluorescence intensity
Constant ends, left off below: … GTCTTGATTCGCTTGACGCTGCTG
Residues (chain): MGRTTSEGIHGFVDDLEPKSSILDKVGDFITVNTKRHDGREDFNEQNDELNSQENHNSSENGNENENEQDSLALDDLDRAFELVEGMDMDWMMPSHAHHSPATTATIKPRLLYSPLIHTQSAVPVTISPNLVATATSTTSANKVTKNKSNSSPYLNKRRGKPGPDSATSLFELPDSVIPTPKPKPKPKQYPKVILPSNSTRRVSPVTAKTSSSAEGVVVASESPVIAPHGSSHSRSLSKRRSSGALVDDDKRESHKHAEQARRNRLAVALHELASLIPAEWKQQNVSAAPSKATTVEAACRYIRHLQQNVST
CGTCCTAGCGATTGATTGGTGGGTGCCATGAGGAAG: 7080 a.u.
TAAACCAAGTAAATGACGATGGGAGAAGCAGTACCC: 3400 a.u.
TCAAAAACGGACATTACTTGCCAGACGCGAATGATA: 3610 a.u.
AATGGAACAGATTAGCACGTGAACGAGAAAGCAACC: 15600 a.u.
TTTTTCTACAAAATGCACATGACAGGATGACCTTCC: 7670 a.u.
GGAGTTAAAGTCGACCACGGGTCCTTTGGAGCATAG: 9330 a.u.
CGTCCTAGTGATTTTCACGTGGCCTCCATGAGGAAG: 15600 a.u.
CGTCCTAGTGATTGGGACGTGGGTGCCATGAGGAAG: 8950 a.u.
ACTGCCAGGAACTGGCACGTTAGCCCTATTACGATC: 7980 a.u.
CGTCCTAGTGATTGTCACCCCACTTCCATGAGGAAG: 4630 a.u.
TCTTAATTAAAGTTTCACGGGCAATTCTAACCTTTT: 3170 a.u.
TTAATATTTTCGGTGCTCGTGGTGAGGCAGAAGCTG: 9450 a.u.
AAATTACTAAGTTGAGACGTGGGTGACGCCGTATGA: 5640 a.u.
TGAGGGTGAGTATGGCATGTGGTGGTGGGATTGGAG: 10100 a.u.
CATACCCAACCTTGCGACGTGGGTGAAGATATTTGT: 7580 a.u.
TATAAAACAACTTTGAACGTGGCAAATCAGATTGCC: 12100 a.u.
TTCAACGCATTGAGACACATGGCTAACTACCCAGTA: 8620 a.u.
GATCTTGACCTTACCGTCGTGACGGGCAGCCTTGAT: 4410 a.u.
TCTGATTCGTTAAAATACGTGATGGTGTTATTTTTA: 4840 a.u.

Set 5
Target: RNA binding protein fox-1 homolog 2, RRM domain, GST-SBP tag (RBFOX2, Homo sapiens, UniProt O43251-10, residues 100-194)
Technique: RNA Bind-n-Seq
Molecule type: RNA
Sample: in vitro
Tested at: 365 nM
Setting: natural RNA segment, single round, ends assumed
Relative to: no-protein control
Reading: higher = stronger binding
Endpoint: RBNS enrichment (R)
Constant ends, left off below: GGGAGUUCUACAGUCCGACGAUC … UGGAAUUCUCGGGUGCCAA
Target sequence (chain): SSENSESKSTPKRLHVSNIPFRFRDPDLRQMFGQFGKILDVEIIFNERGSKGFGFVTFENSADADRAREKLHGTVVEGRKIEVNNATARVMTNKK
GUGAUUUGCCUUUGAACUUGGUCCUAUUGAAGUUCACAAUAAGUGGAAAACAAUUUUUUCAGAGAAUGUAUUUUUGUGCAGAAUUGCACAGAAUUCUAGAGACAGCGUUG: 0.333
CAUCUCGCUGCAUCCCCCGAGAGUACACCGGUUGCUCUAGCCACCUGCGGCCCGCCCAUCUGCGCUAGCUGGCCUUCACGCUCUUGAUCGUCUUUCCUUUGUAUUGGAGA: 1.36
ACUAUUUGAUGUACAGAAUAGAAAACAUUUAAAUAUUGAAUUAGGCACUCAAAACCAACAAAGAGAAUGAGCAAUCAUCUUAAAGAUGGAACCUCUUAAAGGACAACUUU: 0.277
UUAUGAAACUCCUACUGGAGCUCAAUUUGUAAUUUAGAAACAUUUAAUUUUGUUAAUCCUGUCUGGGACAUUUAGGUAACAUCUAAAGCAUUAUUGCUUUAGAAUGUUCA: 0.85
CGUCCUCGUGAGAUGAGAGCCUGAGCCAGGCAGCAGAGCGCUCGCUGCUGUGUAGACUGUAGGCUGCCUGGUGUGUCUGAUGAGAAGCGUCCGUCCUCGAGCCAGGCGGG: 1.55
UCGCAUGGACUGGGAAGUUCUUUUAAAUCAUUAAAUAUUAAGACGACCAUCUCUUCUAUUAAAUUACAGUACAUGUUCUAGACCAUUGAGAUCAAGCCUUUACUCCCUUU: 0.319
CUCCCUUGAGGGUUUCAGGGACCUUGAAAAGGGCAGGAGGACCUGCUGUCUUGCAGUUUUACCCCUGUCCACUCUCUGCCAUCCAGAAGCAAGCGUUGGUCAGUGUUGUG: 0.442
UGUUUUGUUUUAAGGUAACUACUGAAAUAAGUCUGGCUGUUUUUAUAUGCCAGAUACAGAGAAUUUUUAGCGGUUAUUUUUGUAAUUUUAGUAACUUGGAAAAGACCAAA: 0.602
UGCUAAUUGUGUAUAUGUUGGUUUAAUUAUUAAUUAUGUACUAAGAAUGUCCUUAUUCUUGUGGUUAAAAAACCUGCCUGAAUUAAAUUGGGCUUAAAUCAGUGUAACCU: 0.498
AAAUAUAUUAUGUCACUAUUCAGUUCAUGGAGGUUUGUGCUUUUUCAUAUUUUGUGAUAUAUAAGUAGUGAACACACAUGUUAUUUACUUCAAAAGACAGGAUUGACAAA: 0.323
GUAGACAAGUAAGGGCUUGAAAAUGAUACUGGCAAGAUACGAUUGGCUCUAGAUCUACAUUCUUCAAAAAAAAAAAUUGGCUUAACUGUUUCAUCUUUAAGUAGCAUUUU: 0.848
AAGCCACCUCUCUCUUUCUUGCUAUCUUUUUUUUCUCUCUCUCUCUAUCUCAAGUUUGUGCAGGGAGAUGGUGAACUGUUUUGUCAGAACUUAAAUAGAAGAAAAAGAAA: 0.699
